Experimental data of several laboratories.
Several values in a cell are separate wells, animals, samples, runs or records. ± gives the spread as reported.

Structure (SMILES)	cell line	test	conditions	scale	endpoint	result
CNS(=O)(=O)Nc1nccc(Cc2c(C)c3ccc(Oc4ncccc4F)cc3oc2=O)c1F	COR-L47	cell viability	7 days		IC50	> 1 µM
COc1ccc2c(c1)OC1=C(C(=O)CCC1)C2c1c[nH]c2ccccc12 (stereo not drawn)	3T3-L1 mature adipocytes		IC20	reference: untreated	glycerol release	118%
COc1ccc(CNC[C@@](O)(COCc2ccc(OC)cc2)[C@@H]2CC[C@@H](C)C[C@H]2OCc2ccc(OC)cc2)cc1	HeLa	cell growth or viability, MTT	30 µM, 72 h		inhibition	99.4%
Cc1ccc2[nH]c(=O)cc(NCCO)c2c1	COS-7 (untransfected)		500 µM, unit not given	reference: 3 µM ionomycin	calcium mobilisation signal	1.9 ± 0.76
COc1ccc(C2CC(=O)c3c(cc(O)c(CC=C(C)C)c3O)O2)cc1 (stereo not drawn)	HeLa	cell growth or viability, MTT	12.5 µM, 48 h		inhibition	16.4%
CCN(CC)CC(=O)Nc1cccc(-n2cc(-c3ccc4ccc(-c5cn(-c6cccc(NC(=O)CN(CC)CC)c6)nn5)cc4c3)nn2)c1	RCC4	PCR angiogenesis array, refers to: IFNG	5 x IC50, 2 h, normoxia	reference: untreated	fold regulation	1.02
CC(C)(C)c1ccc([C@H](O)C[C@H](CO)NC(=O)CCCCCOc2ccc3ccccc3c2)cc1	HeLa	HPLC-MS-MS lipidomics, refers to: C20 SM and ceramide	1 µM, 24 h	reference: SM over Cer	SM/Cer ratio	23 ,0 and 20 ,0
CCC(=CCc1c(O)cc2c(c1O)C(=O)CC(c1cccc(O)c1)O2)CC (stereo not drawn)	HeLa	cell growth or viability, MTT	25 µM, 48 h		inhibition	45.3%
CC12CCCC(n3cc(C(=O)N4CCC(O)CC4)nn3)(C1)C1CC(C)(C)C1CC2 (stereo not drawn)	HT-29	cell growth or viability, CCK-8	10 µM		inhibition	< 50%
CC(=O)N[C@@H](CC(=O)O)C(=O)N[C@@H](C)C(=O)N[C@@H](Cc1ccc(N)cc1)C(=O)N[C@@H](CC(=O)O)C(=O)COC(=O)c1c(C)cccc1C	THP-1 cells, LPS-primed	pyroptosis, LDH release	25 µM, LPS 1 µg/mL, 4 h, together with: nigericin 5 µM, 2 h		cell lysis	85.4%
O=S(=O)(N[C@H]1CCO[C@@H](C2c3ccccc3CCc3ccccc32)C1)c1ccc(OC(F)(F)F)cc1	D341	immunoblot, refers to: CIP2A	concentration not given		protein level	decreased
N#C[C@@H]1CCCN1C(=O)CNC(=O)c1ccnc2ccc(OCCCN3CCN(C(=O)CCc4ccc(O)c(CN5CCN6CC(=O)[O][Al-]([18F])([O]C(=O)C5)[O]c5ccc(CCC(=O)N7CCN(CCCOc8ccc9nccc(C(=O)NCC(=O)N%10CCC[C@H]%10C#N)c9c8)CC7)cc5C6)c4)CC3)cc12 (stereo partly drawn)	HT1080 cells expressing human FAP		30 min, 37 °C		internalized fraction	66 ± 4.2%
CC(=NN=c1sc(C(=O)c2ccccc2)nn1-c1ccccc1)c1ccc(S(=O)(=O)N2CCC(C)CC2)cc1	MCF7	flow cytometry	4.29 µM (IC50), 72 h		cells in pre-G1 phase	14.3%
O=S(=O)(Nc1ccc(OC(F)(F)F)cc1)N1CCCC(C2c3ccccc3CCc3ccccc32)C1 (stereo not drawn)	D425	CellTiter	concentration not given, 72 h		cell proliferation	decreased
O=C(C[Se]C(=O)c1cc2ccccc2s1)Nc1cccc(C(F)(F)F)c1	NCI60 NSCLC subpanel mean	cell growth			TGI	3.04 µM
C1=[N+]2CCCC[N+]3=Cc4ccc5[n]4[Au-]23[n]2c1ccc2-c1nc2ccccc2nc1-5.F[P-](F)(F)(F)(F)F	OVCAR-8	NCI60 five-dose screen			TGI	4 -log M
CC(=O)c1ccc(S(=O)(=O)NC23CCCC(C)(CCC4C2CC4(C)C)C3)cc1 (stereo not drawn)	HT-29	cell growth or viability, CCK-8	10 µM		inhibition	< 50%
CN1CCCNC(=O)c2cccc(c2)C(=O)NCCCN(C)CCCNc2cccc3c2C(=O)c2cccc(c2C3=O)NCCC1	SAS	RNA-Seq, refers to: MESD mRNA	1 µM, 6 h	reference: untreated cells	log2 fold change	-0.474
CC(=O)N[C@@H](CC(=O)O)C(=O)N[C@@H](CO)C(=O)N[C@H](C(=O)N[C@@H](CC(=O)O)C(=O)COC(=O)c1c(C)cccc1C)C(C)C	THP-1 cells, LPS-primed	pyroptosis, LDH release	25 µM, LPS 1 µg/mL, 4 h, together with: nigericin 5 µM, 2 h		cell lysis	53% and 63.2%
CN1CCN(C(=O)c2cn(C34CCCC(C)(CCC5C3CC5(C)C)C4)nn2)CC1 (stereo not drawn)	HT-29	cell growth or viability, CCK-8	50 µM		inhibition	86%
CCN(C(=O)c1cc(F)ccc1Oc1nncnc1N1CCC2(C1)CN([C@H](CCCN(C)CCOC)C(C)C)C2)C(C)C	OCI-AML-3 (NPM1c)	inhibitor, QuantiGene multiplex, refers to: FLT3 mRNA			IC50	0.283 ± 0.209 µM
CCNc1cc2c(cc1C)C1(c3cc(C)c(NCC)cc3O2)c2ccccc2C(=O)N1N=Cc1c[c-]c(-c2ccccn2)cc1.Cc1c(C)c(-c2ccc(-c3ccccc3)cc2)[c-](C)c1C.[Cl-].[Ir+3]	A549	PI flow cytometry	0.25 x IC50, 24 h		G2/M phase cells	13.2 ± 0.23%
[BH3-][P+]1(c2ccccc2)CCCCC1	HaCaT	Annexin V-FITC/PI flow cytometry	IC50, 72 h		late apoptotic cells	1.45%

Structure (SMILES)	cell line	test	conditions	scale	endpoint	result
CCC(=CCc1c(O)cc2c(c1O)C(=O)CC(c1cccc(O)c1OC)O2)CC (stereo not drawn)	HeLa	cell growth or viability, MTT	6.25 µM, 48 h		inhibition	12.3%
Cc1ccc(-n2cc(CSc3nc4ccccc4n3Cc3cn(-c4ccc(C)cc4)nn3)nn2)cc1	MDA-MB-231	MTT	125 ppm		cytotoxicity	90.7%
CC(C)c1ccc(N(C)c2ccc3c(c2)OCC[C@H]3CNc2cnccc2C(=O)O)cc1	PF-382	cell viability, CellTiter-Glo	7 days		IC50	0.00369 µM
C[C@@H]1CC[C@@H]([C@@](O)(CNCc2ccc(F)cc2)COCc2ccccc2)[C@H](OCc2ccccc2)C1	HeLa	cell growth or viability, MTT	30 µM, 72 h		inhibition	97.8%
CC(=O)N[C@@H](CC(=O)O)C(=O)N[C@@H](Cc1ccc(I)cc1)C(=O)N[C@@H](C)C(=O)N[C@@H](CC(=O)O)C(=O)COC(=O)c1c(C)cccc1C	THP-1 cells, LPS-primed	pyroptosis, LDH release	25 µM, LPS 1 µg/mL, 4 h, together with: nigericin 5 µM, 2 h		cell lysis	66.6%
CCC(=CCc1c(O)cc2c(c1O)C(=O)CC(c1cc(O)ccc1OC)O2)CC (stereo not drawn)	HeLa	cell growth or viability, MTT	12.5 µM, 48 h		inhibition	17.2%
O=C(C[Se]C(=O)c1cc2ccccc2o1)Nc1cccc(C(F)(F)F)c1	NCI60 NSCLC subpanel mean	cell growth			TGI	3.09 µM
CCC(=CCc1c(O)cc2c(c1O)C(=O)CC(c1ccccc1O)O2)CC (stereo not drawn)	HeLa	cell growth or viability, MTT	7.5 µM, 48 h		inhibition	5.13%
Cc1cc(Cl)cc(-c2ccnc3cc(CN4C(=O)C5C(C4=O)C5(C)C)sc23)c1C[C@@H]1CNCCO1 (stereo partly drawn)	CHP-212 resistant cells (pooled)	annexin V-PI flow cytometry	1 µM, 48 h		viable cells (annexin V-/PI-)	78.9% and 84.6% and 90.9%
CCC(=CCc1c(O)cc2c(c1O)C(=O)CC(c1cccc(OC)c1O)O2)CC (stereo not drawn)	HeLa	cell growth or viability, MTT	1.563 µM, 48 h		inhibition	-1.79%
CC(=O)N1CCC[C@H]1C(=O)N[C@H](C(=O)NCC(=O)N[C@@H](CC(=O)O)C(=O)COC(=O)c1c(C)cccc1C)C(C)(C)C	THP-1 cells, LPS-primed	pyroptosis, LDH release	25 µM, LPS 1 µg/mL, 4 h, together with: nigericin 5 µM, 2 h		cell lysis	37.1%
COc1ccc(COC[C@](O)(CNCc2ccc(F)cc2)[C@@H]2CC[C@@H](C)C[C@H]2OCc2ccc(OC)cc2)cc1	A2780	cell growth or viability, MTT	10 µM, 72 h		inhibition	93.9%
CC12CCCC(NC(=O)c3ccc4ccccc4c3)(C1)C1CC(C)(C)C1CC2 (stereo not drawn)	HT-29	cell growth or viability, CCK-8	300 µM		inhibition	61.5%
N#C[C@@H]1CC(F)(F)CN1C(=O)CNC(=O)c1ccnc2ccc(OCCCN3CCN(C(=O)CCc4ccc5c(c4)CN4CCN(Cc6cc(CCC(=O)O)ccc6O)CC(=O)[O][Al-]([18F])([O]C(=O)C4)[O]5)CC3)cc12 (stereo partly drawn)	HT1080 cells expressing human FAP		90 min, 37 °C		internalized fraction	89.2 ± 0.6%
COc1ccc(NC(=O)c2ccc3[nH]c(-c4ccc(N(C)C)cc4)nc3c2)cn1	HCT-116		concentration not given, 6 h, unit not given	reference: DMSO	extracellular HMGB1	5.38 and 3.8 and 4.58
Cc1ncsc1-c1ccc(C(C)NC(=O)C2CC(O)CN2C(=O)C(NC(=O)CCCCCCCCCCN2CCCC(Nc3ncc(Cl)c(Nc4ccccc4S(=O)(=O)C(C)C)n3)C2)C(C)(C)C)cc1 (stereo not drawn)	22Rv1	RNA-seq, refers to: TIGD7 mRNA	concentration not given	reference: DMSO	log2 fold change	-1.29
CC12CCCC(n3cc(C(=O)N4CC(N)C4)nn3)(C1)C1CC(C)(C)C1CC2 (stereo not drawn)	HT-29	cell growth or viability, CCK-8	50 µM		inhibition	84.1%
C=C(NC(=O)c1csc(-c2ccc(NC(=O)CCCCCBr)cc2)n1)C(=O)NC(=C)C(=O)OC	Calu-1	cell growth or viability			EC50	3.1 µM
COC1CCN(C(=O)/C=C/c2nn(Cc3cccc(C(F)(F)F)c3)c3nc(N(C)C)ncc23)CC1	OE33	cell growth or viability, resazurin	5 days		EC50	> 30 µM
N#Cc1cccc(/C=C/C(=O)c2ccc(O)cc2)c1	U-87 MG	refers to: TRIB3	concentration not given	reference: untreated	fold change	81.2
Cn1ncc2cc(-c3cncc(Cl)c3N3CCC4(CCNC4=O)CC3)ccc21	LS174T	gene expression, microarray, refers to: TFF1 mRNA	concentration not given, 24 h	reference: untreated cells	log2 fold change	3.12
CC(C)(C)c1cc(-c2ccc3cccnc3n2)nc(-c2ccc3cccnc3n2)c1.COc1ccncc1.[Cl-].[Cl-].[Ru+2].c1ccc2cc3nc4c5cccnc5c5ncccc5c4nc3cc2c1	SK-MEL-28		light 633 nm, oxygen 1%	reference: dark EC50 over light EC50	phototherapeutic index	3
